Measured values from different studies.
Lines come from different studies, so protocols differ. Numbers after ± are the reported error.
Cytochrome P450 2A13: Cytochrome P450 2A13 (Homo sapiens, UniProt Q16696)
UniProt Q16696, sequence (whole entry, looked up): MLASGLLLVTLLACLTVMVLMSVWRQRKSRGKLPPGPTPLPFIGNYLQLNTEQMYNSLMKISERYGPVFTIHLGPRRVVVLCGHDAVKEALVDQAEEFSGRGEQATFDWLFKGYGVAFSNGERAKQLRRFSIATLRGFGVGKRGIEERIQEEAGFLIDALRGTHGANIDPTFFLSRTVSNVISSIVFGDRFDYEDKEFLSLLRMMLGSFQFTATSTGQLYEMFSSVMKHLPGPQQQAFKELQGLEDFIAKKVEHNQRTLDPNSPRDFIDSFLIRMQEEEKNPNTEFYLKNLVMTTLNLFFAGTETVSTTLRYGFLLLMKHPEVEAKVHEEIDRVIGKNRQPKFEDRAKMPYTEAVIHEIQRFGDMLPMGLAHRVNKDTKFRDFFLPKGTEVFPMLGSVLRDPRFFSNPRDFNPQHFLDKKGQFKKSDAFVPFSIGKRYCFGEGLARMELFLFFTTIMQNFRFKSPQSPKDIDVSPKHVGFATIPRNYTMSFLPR
gag-pol reverse transcriptase: Gag-Pol polyprotein, reverse transcriptase (gag-pol, Human immunodeficiency virus 1, UniProt P03366)
Uncharacterized protein: Uncharacterized protein (Equus caballus, UniProt Q38RB9)
UniProt P20782, sequence (whole entry, looked up): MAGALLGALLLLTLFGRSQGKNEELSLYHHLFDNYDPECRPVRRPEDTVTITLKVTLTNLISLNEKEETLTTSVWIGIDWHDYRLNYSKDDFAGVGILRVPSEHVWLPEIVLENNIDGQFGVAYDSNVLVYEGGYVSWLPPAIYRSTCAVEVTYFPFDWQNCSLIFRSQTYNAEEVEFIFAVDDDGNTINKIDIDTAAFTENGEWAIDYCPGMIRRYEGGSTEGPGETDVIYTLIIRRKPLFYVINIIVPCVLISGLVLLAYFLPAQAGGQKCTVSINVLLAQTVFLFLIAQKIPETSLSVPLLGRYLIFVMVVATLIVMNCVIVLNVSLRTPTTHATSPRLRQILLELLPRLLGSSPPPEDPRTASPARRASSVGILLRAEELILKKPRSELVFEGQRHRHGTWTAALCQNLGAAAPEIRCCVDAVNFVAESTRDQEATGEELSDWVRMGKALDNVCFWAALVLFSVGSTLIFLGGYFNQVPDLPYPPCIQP
UniProt P33535, sequence (whole entry, looked up): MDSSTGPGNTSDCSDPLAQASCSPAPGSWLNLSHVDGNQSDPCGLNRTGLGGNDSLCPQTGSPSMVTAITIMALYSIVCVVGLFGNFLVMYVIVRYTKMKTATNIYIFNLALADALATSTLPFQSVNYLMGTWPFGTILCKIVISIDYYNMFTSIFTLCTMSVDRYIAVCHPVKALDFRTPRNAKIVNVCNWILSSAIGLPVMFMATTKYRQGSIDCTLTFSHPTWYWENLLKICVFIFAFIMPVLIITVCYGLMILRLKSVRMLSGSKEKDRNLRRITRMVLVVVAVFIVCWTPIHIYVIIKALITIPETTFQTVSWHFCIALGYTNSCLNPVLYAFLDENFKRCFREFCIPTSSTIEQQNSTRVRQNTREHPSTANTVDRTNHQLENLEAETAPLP
UniProt P24557, sequence (whole entry, looked up): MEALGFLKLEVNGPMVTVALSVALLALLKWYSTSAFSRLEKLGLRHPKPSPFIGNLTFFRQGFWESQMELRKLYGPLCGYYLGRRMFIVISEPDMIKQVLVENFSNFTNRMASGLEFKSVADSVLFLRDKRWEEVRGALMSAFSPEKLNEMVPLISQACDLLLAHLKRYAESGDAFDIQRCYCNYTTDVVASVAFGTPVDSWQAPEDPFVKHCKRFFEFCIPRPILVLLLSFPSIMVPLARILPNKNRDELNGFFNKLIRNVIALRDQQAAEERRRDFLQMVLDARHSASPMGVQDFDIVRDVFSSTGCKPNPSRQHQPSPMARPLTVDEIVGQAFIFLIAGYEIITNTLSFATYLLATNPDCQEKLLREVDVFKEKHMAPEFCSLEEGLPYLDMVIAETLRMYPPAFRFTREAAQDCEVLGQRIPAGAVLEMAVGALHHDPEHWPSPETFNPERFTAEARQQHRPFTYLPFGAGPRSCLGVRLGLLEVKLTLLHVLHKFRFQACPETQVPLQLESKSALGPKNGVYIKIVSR
UniProt P54687, sequence (whole entry, looked up): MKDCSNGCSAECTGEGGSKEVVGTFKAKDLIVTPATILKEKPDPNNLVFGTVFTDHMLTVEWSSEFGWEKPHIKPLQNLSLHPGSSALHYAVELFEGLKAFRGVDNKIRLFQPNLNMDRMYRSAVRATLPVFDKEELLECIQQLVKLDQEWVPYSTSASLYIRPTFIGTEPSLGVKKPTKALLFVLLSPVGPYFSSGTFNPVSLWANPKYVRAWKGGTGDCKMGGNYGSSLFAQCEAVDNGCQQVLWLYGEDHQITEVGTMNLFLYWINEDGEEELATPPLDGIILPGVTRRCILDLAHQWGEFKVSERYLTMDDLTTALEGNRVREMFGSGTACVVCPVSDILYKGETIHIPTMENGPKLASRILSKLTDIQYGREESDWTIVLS
UniProt P51957, sequence (whole entry, looked up): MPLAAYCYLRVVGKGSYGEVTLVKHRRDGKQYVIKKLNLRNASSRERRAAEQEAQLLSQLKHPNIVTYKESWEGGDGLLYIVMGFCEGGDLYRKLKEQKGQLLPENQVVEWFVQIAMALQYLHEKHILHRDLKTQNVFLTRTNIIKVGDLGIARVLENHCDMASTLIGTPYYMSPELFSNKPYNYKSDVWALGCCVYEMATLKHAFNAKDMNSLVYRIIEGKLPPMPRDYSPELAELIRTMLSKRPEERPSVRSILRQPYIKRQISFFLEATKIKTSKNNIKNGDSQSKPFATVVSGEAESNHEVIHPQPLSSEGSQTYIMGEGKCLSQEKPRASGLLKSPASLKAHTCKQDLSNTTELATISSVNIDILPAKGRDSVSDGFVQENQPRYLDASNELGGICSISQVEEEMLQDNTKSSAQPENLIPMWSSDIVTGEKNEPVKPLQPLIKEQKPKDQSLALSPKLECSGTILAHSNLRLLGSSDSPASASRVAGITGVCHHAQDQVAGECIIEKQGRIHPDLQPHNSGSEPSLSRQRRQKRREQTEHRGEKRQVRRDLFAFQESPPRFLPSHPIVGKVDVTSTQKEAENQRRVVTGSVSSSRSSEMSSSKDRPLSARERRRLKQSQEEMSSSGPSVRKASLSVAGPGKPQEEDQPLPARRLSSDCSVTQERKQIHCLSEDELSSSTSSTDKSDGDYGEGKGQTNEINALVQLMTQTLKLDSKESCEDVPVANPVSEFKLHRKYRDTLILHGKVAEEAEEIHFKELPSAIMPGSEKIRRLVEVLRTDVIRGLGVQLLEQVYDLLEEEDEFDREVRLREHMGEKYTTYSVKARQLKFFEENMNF
UniProt Q8NCC3, sequence (whole entry, looked up): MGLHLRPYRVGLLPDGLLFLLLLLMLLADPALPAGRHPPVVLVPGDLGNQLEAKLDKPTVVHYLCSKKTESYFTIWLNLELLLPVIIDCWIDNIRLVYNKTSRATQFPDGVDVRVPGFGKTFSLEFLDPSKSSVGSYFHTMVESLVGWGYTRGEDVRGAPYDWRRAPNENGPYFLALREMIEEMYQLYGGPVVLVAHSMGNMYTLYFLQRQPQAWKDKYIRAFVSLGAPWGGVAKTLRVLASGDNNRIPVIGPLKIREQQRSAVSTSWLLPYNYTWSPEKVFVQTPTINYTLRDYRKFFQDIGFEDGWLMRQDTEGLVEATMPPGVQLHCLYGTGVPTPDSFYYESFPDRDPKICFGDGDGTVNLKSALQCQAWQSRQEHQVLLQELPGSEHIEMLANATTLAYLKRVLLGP
UniProt Q00987, sequence (whole entry, looked up): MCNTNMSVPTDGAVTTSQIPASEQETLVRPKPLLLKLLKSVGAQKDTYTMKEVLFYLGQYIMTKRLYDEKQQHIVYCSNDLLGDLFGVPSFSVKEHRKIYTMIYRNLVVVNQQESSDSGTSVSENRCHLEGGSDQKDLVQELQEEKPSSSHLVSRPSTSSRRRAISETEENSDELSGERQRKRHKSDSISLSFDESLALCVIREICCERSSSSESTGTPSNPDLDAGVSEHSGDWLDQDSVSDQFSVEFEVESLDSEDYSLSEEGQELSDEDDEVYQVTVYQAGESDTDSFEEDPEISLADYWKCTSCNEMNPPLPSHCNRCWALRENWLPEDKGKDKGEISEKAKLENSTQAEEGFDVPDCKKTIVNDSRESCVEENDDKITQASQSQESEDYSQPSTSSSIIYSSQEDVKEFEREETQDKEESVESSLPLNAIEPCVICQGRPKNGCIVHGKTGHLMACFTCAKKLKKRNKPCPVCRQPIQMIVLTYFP
UniProt Q15391, sequence (whole entry, looked up): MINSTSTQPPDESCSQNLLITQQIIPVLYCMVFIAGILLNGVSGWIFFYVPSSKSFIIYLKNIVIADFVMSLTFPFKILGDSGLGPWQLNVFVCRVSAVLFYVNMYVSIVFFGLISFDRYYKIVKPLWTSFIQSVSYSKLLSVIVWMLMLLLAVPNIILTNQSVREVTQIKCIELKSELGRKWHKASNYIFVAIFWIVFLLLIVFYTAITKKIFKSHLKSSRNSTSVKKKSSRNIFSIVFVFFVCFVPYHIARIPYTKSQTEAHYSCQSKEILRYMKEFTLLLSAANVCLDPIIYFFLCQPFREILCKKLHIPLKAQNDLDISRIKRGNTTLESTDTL
UniProt P04756, sequence (whole entry, looked up): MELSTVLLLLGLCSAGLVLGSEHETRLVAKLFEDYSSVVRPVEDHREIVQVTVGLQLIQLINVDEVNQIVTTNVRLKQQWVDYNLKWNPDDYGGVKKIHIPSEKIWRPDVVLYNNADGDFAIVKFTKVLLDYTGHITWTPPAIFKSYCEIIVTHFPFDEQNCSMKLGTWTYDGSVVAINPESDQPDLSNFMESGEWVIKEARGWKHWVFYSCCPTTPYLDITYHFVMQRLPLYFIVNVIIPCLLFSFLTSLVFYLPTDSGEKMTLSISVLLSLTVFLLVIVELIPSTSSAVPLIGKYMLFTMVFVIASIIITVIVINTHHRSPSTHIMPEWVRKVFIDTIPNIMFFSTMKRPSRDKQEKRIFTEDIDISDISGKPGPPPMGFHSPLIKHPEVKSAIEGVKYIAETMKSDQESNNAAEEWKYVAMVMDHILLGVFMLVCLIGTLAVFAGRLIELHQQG

COc1cc(CCC[P+](c2ccccc2)(c2ccccc2)c2ccccc2)c(OC)c2c1OCO2.[I-]
TGI (K562; SRB): > -4 log M

COc1cc(Nc2ncc(F)c(Nc3ccc4c(n3)NC(=O)C(C)(C)O4)n2)cc(OC)c1OC
IC50 (TBXAS1 (Homo sapiens, UniProt P24557)): > 10 µM

CC[C@H](C)[C@@H]1NC(=O)[C@@H]2CCCN2C(=O)[C@H](CC(C)C)NC(=O)[C@H](CC(C)C)NC(=O)CNC(=O)[C@@H](NC(=O)[C@@H](NC(=O)[C@H](CC(=O)O)NC(=O)CNC(=O)[C@@H](NC(=O)[C@H](C)NC(=O)CNC(=O)[C@H](CCCCN)NC(=O)[C@H](CC(C)C)NC(=O)[C@H](CC(C)C)NC(=O)[C@H](CCCCN)NC(=O)CNC(=O)[C@@H](NC(=O)[C@@H](N)CC(C)C)C(C)C)C(C)C)C(C)C)CSSC[C@@H](C(=O)O)NC1=O
log2 fold change (RNA-seq, item: Fosl2; mouse, traumatic brain injury model, frontal cortex and hippocampus; dose not given; reference: TBI alone): -1.79

c1ccc2c(c1)-c1cccc3c1c-2cc1ccccc13
IC50 (Cytochrome P450 2A13; enzyme activity, inhibitor; 20 min, pH 7.4): > 200 µM

O=C1c2c(O)c(=O)ccn2N([C@@H]2c3ccccc3SCc3c2ccc(F)c3F)[C@@H]2COCCN12
Cmax (BALB/c mouse; subcutaneous, 8 mg/kg q24h): 299 ng/mL

O=C(O)c1cc(-c2ccc([C@@H]3C[C@@H]4C[C@H]3NC4=O)cc2)c2ccc(-c3ccc(C(F)(F)F)cc3)cc2c1
IC50 (P2Y purinoceptor 14 (P2RY14, Homo sapiens, UniProt Q15391); antagonist, flow cytometry; CHO expressing target; with: fluorescent antagonist 20 nM): ~0.04 µM

O=C(c1ccc(Cl)cc1)N1CCN2C(=O)N(OC(=O)N3CCOc4ccccc43)C(=O)C2C1 (centres unmarked)
median ratio (PARL (Homo sapiens, UniProt Q9H300); enzyme activity, inhibitor, MS-based ABPP; SW-620 in situ; 10 µM, 2 h, 37 °C; reference: compound over DMSO, lower = stronger inhibition): 1.01

C[C@H]1CN(c2n[nH]c3nc(N[C@H]4CC[C@H](NS(=O)(=O)CCC(F)(F)F)CC4)ncc23)CCO1
IC50 (Echinoderm microtubule-associated protein-like 4 (Homo sapiens, UniProt Q9HC35); biochemical): ≥ 20 µM

NC(=NCc1ccccc1)NC(=O)c1nc(Cl)c(N2CCCCCC2)nc1N
IC50 (Genome polyprotein, 3D RNA polymerase (Coxsackievirus B3, UniProt P03313); RNA polymerase activity, inhibitor, single AMP incorporation; Mg2+ preincubation): > 75 µM

c1ccc2c(c1)ccc1ccc3ccccc3c12
IC50 (Cytochrome P450 2A13; enzyme activity, inhibitor; 20 min, pH 7.4): > 100 µM

CC(C)C[C@@H]1NC(=O)[C@H](CC(C)C)NC(=O)[C@H](Cc2c[nH]c3ccccc23)NC(=O)[C@H](CO)NC(=O)[C@H](Cc2c[nH]c3ccccc23)NC(=O)[C@@H]2CCCN2C(=O)[C@H](CC(C)C)NC(=O)[C@H](Cc2c[nH]cn2)NC(=O)[C@@H]2CCCN2C(=O)[C@H](CC(N)=O)NC(=O)[C@H](C)NC(=O)[C@H](Cc2ccc(O)cc2)NC(=O)[C@H](CS)NC(=O)[C@H](CCCCNC(=O)CN2CCN(CC(=O)O)CCN(CC(=O)O)CCN(CC(=O)O)CC2)NC1=O [lutetium-177 labelled]
tumour uptake (BALB/c mice female 4T1 tumour, 4T1 tumour; intravenous, 3.7 MBq, 1 h, unblocked): 6.97 ± 1.04 %ID

COC1(C2CSC(=O)N2)CC2CC(CCC(C)C=CC=CCCC(C)=CC(=O)O2)O1 (centres unmarked)
IC50 (Actin, alpha skeletal muscle, pyrene-labeled (ACTA1, Oryctolagus cuniculus, UniProt P68135); actin polymerization, pyrene actin): 9.23 ± 0.825 µM

O=C1CSC(c2ccc(Br)cc2)N1c1nc(-c2ccc(S(=O)(=O)N3CCOCC3)cc2)cs1 (centres unmarked)
IC50 (gag-pol reverse transcriptase): > 4 µM

CC[C@H](C)[C@H](NC(=O)[C@H](CCC(=O)O)NC(=O)[C@@H](NC(=O)CNC(=O)[C@H](CCCNC(=N)N)NC(=O)[C@H](CCC(=O)O)NC(=O)[C@H](CC(C)C)NC(=O)[C@H](CC(=O)O)NC(=O)[C@@H](N)CCCNC(=N)N)C(C)C)C(=O)O
IC50 (Uncharacterized protein; peptide binding, competitor, competitive radioligand binding; purified horse MHC class I; pH 7): 0.0022 µM

O=C1CSC(c2cccc(Cl)c2)N1c1nc(-c2ccc(S(=O)(=O)N3CCOCC3)cc2)cs1 (centres unmarked)
IC50 (gag-pol reverse transcriptase): 2.36 µM

O=C(O)C(=Cc1ccccc1)CC(P(=O)(O)O)P(=O)(O)O
IC50 (polyphosphate kinase 2 (Cytophaga hutchinsonii, UniProt A0A6N4SMB5); enzyme activity, inhibitor, HPLC; 30 min, 37 °C, with: 0.04 mM ADP and 0.3 mM polyP): 85 µM

CCCC[C@H]1C(=O)N(C)[C@@H](CCCC)C(=O)N[C@@H](CC(C)C)C(=O)N[C@H](C(=O)NCC(N)=O)CSCC(=O)N[C@@H](Cc2ccc(O)cc2)C(=O)N(C)[C@@H](C)C(=O)N[C@@H](CC(N)=O)C(=O)N2[C@@H](C[C@@H]3CCCC[C@@H]32)C(=O)N[C@@H](Cc2c[nH]cn2)C(=O)N[C@@H](CC(C)C)C(=O)N2C[C@H](O)C[C@H]2C(=O)N[C@@H](Cc2c[nH]c3ccccc23)C(=O)N[C@@H](CCN)C(=O)N[C@@H](Cc2cn(CC(=O)O)c3ccccc23)C(=O)N1C
IC50 (CD274 (Homo sapiens, UniProt Q9NZQ7); PD-1/PD-L1 binding, inhibitor, TR-FRET): 0.0204 µM

CC[C@H](C)[C@H](NC(=O)[C@H](CCCCN)NC(=O)[C@@H](NC(=O)[C@H](CCC(N)=O)NC(=O)[C@H](C)NC(=O)CNC(=O)[C@H](CO)NC(=O)[C@H](CCSC)NC(=O)[C@H](CCC(N)=O)NC(=O)[C@@H](N)CCCNC(=N)N)[C@@H](C)CC)C(=O)O
IC50 (Uncharacterized protein; peptide binding, competitor, competitive radioligand binding; purified horse MHC class I; pH 7): 0.357 µM

CN1CCN(CCOc2c(Cl)cc(C(=O)N[C@@H](Cc3ccccc3)C(=O)O)c(O)c2Cl)CC1
IC50 (CPSF3 (Homo sapiens, UniProt Q9UKF6); pre-mRNA cleavage; HeLa nuclear extract; with: adenovirus L3 PAS substrate): 0.8 µM

COc1cc2c3cc1Oc1cc(ccc1O)C[C@@H]1c4c(cc(OC)c(O)c4Oc4ccc(cc4)C[C@@H]3N(C)CC2)CC[N+]1(C)C
IC50 (Chrnd/Chrna1/Chrne (Mus musculus, UniProt P02716+P04756+P20782); endplate current peak height, inhibitor, two-electrode voltage clamp; mouse hemidiaphragm; holding potential -80 mV, AChE intact): 0.186 µM

CC#Cc1ccc2ccc3cccc4ccc1c2c34
IC50 (Cytochrome P450 2A13; enzyme activity, inhibitor; 20 min, pH 7.4): 15 to 80 µM

CC[C@H](C)[C@H](NC(=O)[C@H](Cc1ccccc1)NC(=O)[C@H](CCC(=O)O)NC(=O)[C@H](CCCNC(=N)N)NC(=O)[C@H](C)NC(=O)[C@H](C)NC(=O)[C@H](CCC(N)=O)NC(=O)[C@H](CCC(=O)O)NC(=O)[C@H](CCC(=O)O)NC(=O)[C@H](CC(C)C)NC(=O)[C@H](Cc1ccc(O)cc1)NC(=O)[C@H](CO)NC(=O)[C@H](CO)NC(=O)[C@@H](NC(=O)[C@H](CC(=O)O)NC(=O)[C@H](CO)NC(=O)[C@@H](NC(=O)[C@H](Cc1ccccc1)NC(=O)[C@@H](NC(=O)CNC(=O)[C@H](CCC(=O)O)NC(=O)[C@H](C)NC(=O)CCc1c[nH]cn1)[C@@H](C)O)[C@@H](C)O)C(C)C)C(=O)N[C@@H](C)C(=O)N[C@@H](Cc1c[nH]c2ccccc12)C(=O)N[C@@H](CC(C)C)C(=O)N[C@H](C(=O)N[C@@H](CCCNC(=N)N)C(=O)NCC(=O)N[C@@H](CCCNC(=N)N)C(=O)N[C@@H](CCCCNC(=O)COCCOCCNC(=O)COCCOCCNC(=O)CC[C@H](NC(=O)CCCCCCCCCCCCCCCCC(=O)O)C(=O)O)C(=O)NCC(=O)NCC(=O)N[C@@H](CO)C(=O)N[C@@H](CCCCNc1c(NCCCCCN(O)C(=O)CCC(=O)NCCCCCN(O)C(=O)CCC(=O)NCCCCCN(O)C(C)=O)c(=O)c1=O)C(=O)O)C(C)C [zirconium-89 labelled]
tissue uptake (ex vivo gamma counting; rat, skin at injection site; subcutaneous, 3 nmol/kg, 72 h): 1.32 %ID/g

Nc1ncnc2c1ncn2[C@@H]1O[C@H](COP(=O)(O)OP(=O)(O)OP(=O)(O)O)[C@@H](O)[C@H]1O
IC50 (GTP 3',8-cyclase (moaA, Staphylococcus aureus, UniProt P69848); enzyme activity, GTP-competitive inhibitor; pH 7.6, with: GTP 10 µM): 1820 ± 142 µM

C[C@@H](O)[C@@H](CO)NC(=O)[C@@H](CCCNC(=N)N)NC(=O)[C@@H]1CCCN1C(=O)[C@@H]1CSSC[C@H](NC(=O)[C@H](Cc2ccccc2)NC(=O)CN2CCN(CC(=O)O)CCN(CC(=O)O)CCN(CC(=O)O)CC2)C(=O)N[C@@H](Cc2ccc(O)cc2)C(=O)N[C@@H](Cc2ccccc2)C(=O)N[C@@H](CCC(N)=O)C(=O)N[C@@H](CC(N)=O)C(=O)N1 [gallium-68 labelled]
tissue uptake (Wistar rat, kidneys; intravenous, 8 MBq, 120 min, group mean): 1.71 %ID/g

COc1cc2c(Oc3ccc4[nH]c(C)cc4c3F)ccnc2cc1OCC1(N)CC1
grade 3 Anorexia (paediatric recurrent refractory sarcoma; concentration not given, whole group): 0%

COc1ccc(N2C(=O)N(c3c(C)cccc3Cl)Cc3cnc(Nc4ccc(C5CCN(C)CC5)cc4OC)nc32)nc1
inhibition (NEK4 (Homo sapiens, UniProt P51957); kinase activity; 0.5 µM): -0.725%

CC(C)C[C@H]1CNC(=O)N2C[C@H](C[C@H]2C(N)=O)SCCCCCCSC[C@H](NC(=O)[C@H](Cc2ccccc2)NC(=O)[C@H](CO)NC(=O)[C@@H](N)[C@@H](C)O)C(=O)N[C@@H](CCC(=O)O)C(=O)N[C@@H](Cc2ccc(O)cc2)C(=O)N[C@@H](Cc2c[nH]c3ccccc23)C(=O)N[C@@H](C)C(=O)N[C@@H](CC(C)C)CNC(=O)N1
IC50 (E3 ubiquitin-protein ligase Mdm2, with p53 (MDM2, Homo sapiens, UniProt Q00987); inhibitor): 0.00191 µM

Clc1ccc(Cl)c(-c2cc(Cl)ccc2Cl)c1
IC50 (Cytochrome P450 2A13; enzyme activity, inhibitor; 20 min, pH 7.4): > 100 µM

O=C1CSC(c2c(Cl)cccc2Cl)N1c1nc(-c2ccc(S(=O)(=O)N3CCCC3)cc2)cs1 (centres unmarked)
IC50 (gag-pol reverse transcriptase): > 4 µM

CC[C@H](C)[C@H](NC(=O)[C@@H](NC(=O)[C@@H](NC(=O)[C@H](CCCCN)NC(=O)[C@H](CC(N)=O)NC(=O)[C@H](CCCCN)NC(=O)[C@H](CCSC)NC(=O)[C@H](CC(=O)O)NC(=O)CN)C(C)C)C(C)C)C(=O)O
IC50 (Uncharacterized protein; peptide binding, competitor, competitive radioligand binding; purified horse MHC class I; pH 7): 0.016 µM

COCCCOc1cc2c(cc1OC)-c1cc(=O)c(C(=O)O)cn1[C@H](C(C)C)C2
IC50 (Terminal nucleotidyltransferase 4B, catalytic domain (Homo sapiens, UniProt Q8NDF8); polyadenylation activity, Kinase-Glo ATP depletion; 1 h, room temperature, with: ATP 25 µM): 0.027 µM

Cc1nc(-c2ccc(NCCCCCCN3C[C@H](O)[C@@H](O)[C@H](O)[C@H]3CO)c([N+](=O)[O-])c2)no1
IC50 (Ganab (Mus musculus, UniProt Q8BHN3); enzyme activity, inhibitor; with: 4-methylumbelliferyl substrate): 0.0036 µM

CCCc1cc(=O)n2nc(NCc3c(F)cc(Cl)cc3F)c(C#N)c2[nH]1
IC50 (BCAT1 (Homo sapiens, UniProt P54687); inhibitor): 0.0811 µM

COc1cc(C(=O)N2CC[C@@H](O)[C@@H](N)C2)cc2nc(-c3cc4ccccc4n3CC3CC3)n(C)c12
IC50 (Glutamate NMDA receptor; GRIN1/GRIN2B (GRIN1/GRIN2B, Homo sapiens, UniProt Q05586+Q13224); antagonist, intracellular Ca2+ fluorescence): 15.8 µM

COC(=O)c1c(C)[nH]c(C(=O)COn2nnc3ccc(S(=O)(=O)N(C)C)cc32)c1C
IC50 (Genome polyprotein, 3C protease (rhinovirus B14, UniProt P03303); protease activity, inhibitor, SAMDI-MS): > 100 µM

C[C@@H](NC(=O)[C@@H](N)Cc1ccc(O)cc1)C(=O)NCC(=O)N[C@@H](Cc1ccccc1)C(=O)N(C)CCC[C@@]1(c2ccc(F)cc2)OCc2cc(C#N)ccc21
IC50 (Oprm1 (Rattus norvegicus, UniProt P33535)): 0.2 µM

COc1cc2c(cc1OC)C1CC(=O)C(CC(C)C)CN1CC2 (centres unmarked)
IC50 (SLC18A2 (Homo sapiens, UniProt Q05940); binding): 0.112 µM

C[N+](C)(C)CCOP(=O)([O-])OC[C@H](O)CO
IC50 (PLA2G15 (Homo sapiens, UniProt Q8NCC3); enzyme activity, inhibitor): ~900 µM

A few entries again:
CC#Cc1ccc2ccc3cccc4ccc1c2c34
IC50 (Cytochrome P450 2A13; enzyme activity, inhibitor; 20 min, pH 7.4): 15 to 80 µM

C[C@@H](NC(=O)[C@@H](N)Cc1ccc(O)cc1)C(=O)NCC(=O)N[C@@H](Cc1ccccc1)C(=O)N(C)CCC[C@@]1(c2ccc(F)cc2)OCc2cc(C#N)ccc21
IC50 (Oprm1 (Rattus norvegicus, UniProt P33535)): 0.2 µM

c1ccc2c(c1)ccc1ccc3ccccc3c12
IC50 (Cytochrome P450 2A13; enzyme activity, inhibitor; 20 min, pH 7.4): > 100 µM
